Results from different studies.
Compare with care: the assays were run in different laboratories. ± marks the error that the study gave.
U2AF2: U2AF2 148-342 (Homo sapiens, UniProt P26368)
Chain of UniProt P26368 (whole entry, looked up): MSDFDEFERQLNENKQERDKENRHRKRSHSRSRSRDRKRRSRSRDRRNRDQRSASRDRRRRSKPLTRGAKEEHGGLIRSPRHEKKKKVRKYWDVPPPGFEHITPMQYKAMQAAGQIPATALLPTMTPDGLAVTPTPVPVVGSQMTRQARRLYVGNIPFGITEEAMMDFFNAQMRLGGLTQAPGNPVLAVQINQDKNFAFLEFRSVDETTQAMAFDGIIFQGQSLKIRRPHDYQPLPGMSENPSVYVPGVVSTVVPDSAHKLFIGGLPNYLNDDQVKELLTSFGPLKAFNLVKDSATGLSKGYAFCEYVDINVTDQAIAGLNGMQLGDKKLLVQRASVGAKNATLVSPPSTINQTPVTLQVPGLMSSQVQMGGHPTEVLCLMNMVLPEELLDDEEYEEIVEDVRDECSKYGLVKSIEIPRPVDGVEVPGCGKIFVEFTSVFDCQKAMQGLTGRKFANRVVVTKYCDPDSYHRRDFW
B1: ADRB1 W183A (Homo sapiens, UniProt P08588); sequence looked up; chain MGAGVLVLGASEPGNLSSAAPLPDGAATAARLLVPASPPASLLPPASESPEPLSQQWTAGMGLLMALIVLLIVAGNVLVIVAIAKTPRLQTLTNLFIMSLASADLVMGLLVVPFGATIVVWGRWEYGSFFCELWTSVDVLCVTASIETLCVIALDRYLAITSPFRYQSLLTRARARGLVCTVAAISALVSFLPILMHWWRAESDEARRCYNDPKCCDFVTNRAYAIASSVVSFYVPLCIMAFVYLRVFREAQKQVKKIDSCERRFLGGPARPPSPSPSPVPAPAPPPGPPRPAAAAATAPLANGRAGKRRPSRLVALREQKALKTLGIIMGVFTLCWLPFFLANVVKAFHRELVPDRLFVFFNWLGYANSAFNPIIYCRSPDFRKAFQGLLCCARRAARRRHATHGDRPRASGCLARPGPPPSPGAASDDDDDDVVGATPPARLLEPWAGCNGGAAADSDSSLDEPCRPGFASESKV
B2: CRYAB (Homo sapiens, UniProt P02511); sequence looked up; chain MDIAIHHPWIRRPFFPFHSPSRLFDQFFGEHLLESDLFPTSTSLSPFYLRPPSFLRAPSWFDTGLSEMRLEKDRFSVNLDVKHFSPEELKVKVLGDVIEVHGKHEERQDEHGFISREFHRKYRIPADVDPLTITSSLSSDGVLTVNGPRKQVSGPERTIPITREEKPAVTAAPKK
B3: spnA dimerization element 1877-1944 (Saccharopolyspora spinosa, UniProt Q9ALM6); sequence looked up; chain ALRESSAGDMGRRVEAKFWGAVEHEDVESLARVLGIVDDGAAVDSLRSALPVLAGWQRTRTTESIMDQ
B4: S100A3 (Homo sapiens, UniProt P33764); sequence looked up; chain MARPLEQAVAAIVCTFQEYAGRCGDKYKLCQAELKELLQKELATWTPTEFRECDYNKFMSVLDTNKDCEVDFVEYVRSLACLCLYCHEYFKDCPSEPPCSQ
B5: BTK SH3-SH2 215-378 P327A (Mus musculus, UniProt P35991); sequence looked up; chain ELKKVVALYDYMPMNANDLQLRKGEEYFILEESNLPWWRARDKNGQEGYIPSNYITEAEDSIEMYEWYSKHMTRSQAEQLLKQEGKEGGFIVRDSSKAGKYTVSVFAKSTGEAQGVIRHYVVCSTPQSQYYLAEKHLFSTIPELINYHQHNSAGLISRLKYPVS
B6: Ikbkg 1-355 C54S/K285N (Mus musculus, UniProt O88522); sequence looked up; chain MNKHPWKNQLSEMVQPSGGPAEDQDMLGEESSLGKPAMLHLPSEQGTPETLQRSLEENQELRDAIRQSNQMLRERCEELLHFQVSQREEKEFLMCKFQEARKLVERLSLEKLDLRSQREQALKELEQLKKCQQQMAEDKASVKAQVTSLLGELQESQSRLEAATKDRQALEGRIRAVSEQVRQLESEREVLQQQHSVQVDQLRMQNQSVEAALRMERQAASEEKRKLAQLQAAYHQLFQDYDSHIKSSKGMQLEDLRQQLQQAEEALVAKQELIDKLKEEAEQHNIVMETVPVLKAQADIYKADFQAERHAREKLVEKKEYLQEQLEQLQREFNKLKVGCHESARIEDMRKRHVE
B7: S100A8 (Homo sapiens, UniProt P05109); sequence looked up; chain MLTELEKALNSIIDVYHKYSLIKGNFHAVYRDDLKKLLETECPQYIRKKGADVWFKELDINTDGAVNFQEFLILVIKMGVAAHKKSHEESHKE
B8: NUP60 48-162 (Saccharomyces cerevisiae, UniProt P39705); sequence looked up; chain VSPRNNVANKQPRNESFNRRISSMPGGYFHSEISPDSTVNRSVVVSAVGEARNDIENKEEEYDETHETNISNAKLANFFSKKGNEPLSEIEIEGVMSLLQKSSKSMITSEGEQKS
B9: human mitochondrial dicarboxylate carrier; sequence looked up; chain MAAEARVSRWYFGGLASCGAACCTHPLDLLKVHLQTQQEVKLRMTGMALRVVRTDGILALYSGLSASLCRQMTYSLTRFAIYETVRDRVAKGSQGPLPFHEKVLLGSVSGLAGGFVGTPADLVNVRMQNDVKLPQGQRRNYAHALDGLYRVAREEGLRRLFSGATMASSRGALVTVGQLSCYDQAKQLVLSTGYLSDNIFTHFVASFIAGGCATFLCQPLDVLKTRLMNSKGEYQGVFHCAVETAKLGPLAFYKGLVPAGIRLIPHTVLTFVFLEQLRKNFGIKVPS
B10: unc-83 1-305 (Caenorhabditis elegans, UniProt Q23064); sequence looked up; chain MDVMDSFSEVEMPNDISSEDHLLKVIESSAEEVDIFLENCSSLYNLILDSLHNLTSKTISCECLDEMTSTLEKSAKKILAERPEAENSVLLRLNTICCAMDQLRVQHNSRMMSGADSDTASSARSSTSSSTGEMRLWLHEVERRLEINEKRIRVEPNLQLLLSDQQALQLEIQHEGQLLVNRLNKQIKDDHDSDSSEEEKRKTCVDAIRKRWHTIYLNSLSLVCRIEELINHQQASEDSESDPDLVGPPIKRARIRTVGHLTASDTEESEADEEDRHSQTETVVTEDDNVLPFAENEYESIMDGR
B11: peroxiredoxin-4 (human); sequence looked up; chain WETEERPRTREEECHFYAGGQVYPGEASRVSVADHSLHLSKAKISKPAPYWEGTAVIDGEFKELKLTDYRGKYLVFFFYPLDFTFVCPTEIIAFGDRLEEFRSINTEVVACSVDSQFTHLAWINTPRRQGGLGPIRIPLLSDLTHQISKDYGVYLEDSGHTLRGLFIIDDKGILRQITLNDLPVGRSVDETLRLVQAFQYTDKHGEVCPAGWKPGSETIIPDPAGKLKYFDKLN
B12: S100A5 (Homo sapiens, UniProt P33763); sequence looked up; chain METPLEKALTTMVTTFHKYSGREGSKLTLSRKELKELIKKELCLGEMKESSIDDLMKSLDKNSDQEIDFKEYSVFLTMLCMAYNDFFLEDNK
B13: OGT monomeric W198E/I201D (UniProt O15294-3); sequence looked up; chain MASSVGNVADSTGLAELAHREYQAGDFEAAERHCMQLWRQEPDNTGVLLLLSSIHFQCRRLDRSAHFSTLAIKQNPLLAEAYSNLGNVYKERGQLQEAIEHYRHALRLKPDFIDGYINLAAALVAAGDMEGAVQAYVSALQYNPDLYCVRSDLGNLLKALGRLEEAKACYLKAIETQPNFAVAWSNLGCVFNAQGEIELADHHFEKAVTLDPNFLDAYINLGNVLKEARIFDRAVAAYLRALSLSPNHAVVHGNLACVYYEQGLIDLAIDTYRRAIELQPHFPDAYCNLANALKEKGSVAEAEDCYNTALRLCPTHADSLNNLANIKREQGNIEEAVRLYRKALEVFPEFAAAHSNLASVLQQQGKLQEALMHYKEAIRISPTFADAYSNMGNTLKEMQDVQGALQCYTRAIQINPAFADAHSNLASIHKDSGNIPEAIASYRTALKLKPDFPDAYCNLAHCLQIVCDWTDYDERMKKLVSIVADQLEKNRLPSVHPHHSMLYPLSHGFRKAIAERHGNLCLDKINVLHKPPYEHPKDLKLSDGRLRVGYVSSDFGNHPTSHLMQSIPGMHNPDKFEVFCYALSPDDGTNFRVKVMAEANHFIDLSQIPCNGKAADRIHQDGIHILVNMNGYTKGARNELFALRPAPIQAMWLGYPGTSGALFMDYIITDQETSPAEVAEQYSEKLAYMPHTFFIGDHANMFPHLKKKAVIDFKSNGHIYDNRIVLNGIDLKAFLDSLPDVKIVKMKCPDGGDNADSSNTALNMPVIPMNTIAEAVIEMINRGQIQITINGFSISNGLATTQINNKAATGEEVPRTIIVTTRSQYGLPEDAIVYCNFNQLYKIDPSTLQMWANILKRVPNSVLWLLRFPAVGEPNIQQYAQNMGLPQNRIIFSPVAPKEEHVRRGQLADVCLDTPLCNGHTTGMDVLWAGTPMVTMPGETLASRVAASQLTCLGCLELIAKNRQEYEDIAVKLGTDLEYLKKVRGKVWKQRISSPLFNTKQYTMELERLYLQMWEHYAAGNKPDHMIKPVEVTESA
Chain of UniProt Q9BQ39 (whole entry, looked up): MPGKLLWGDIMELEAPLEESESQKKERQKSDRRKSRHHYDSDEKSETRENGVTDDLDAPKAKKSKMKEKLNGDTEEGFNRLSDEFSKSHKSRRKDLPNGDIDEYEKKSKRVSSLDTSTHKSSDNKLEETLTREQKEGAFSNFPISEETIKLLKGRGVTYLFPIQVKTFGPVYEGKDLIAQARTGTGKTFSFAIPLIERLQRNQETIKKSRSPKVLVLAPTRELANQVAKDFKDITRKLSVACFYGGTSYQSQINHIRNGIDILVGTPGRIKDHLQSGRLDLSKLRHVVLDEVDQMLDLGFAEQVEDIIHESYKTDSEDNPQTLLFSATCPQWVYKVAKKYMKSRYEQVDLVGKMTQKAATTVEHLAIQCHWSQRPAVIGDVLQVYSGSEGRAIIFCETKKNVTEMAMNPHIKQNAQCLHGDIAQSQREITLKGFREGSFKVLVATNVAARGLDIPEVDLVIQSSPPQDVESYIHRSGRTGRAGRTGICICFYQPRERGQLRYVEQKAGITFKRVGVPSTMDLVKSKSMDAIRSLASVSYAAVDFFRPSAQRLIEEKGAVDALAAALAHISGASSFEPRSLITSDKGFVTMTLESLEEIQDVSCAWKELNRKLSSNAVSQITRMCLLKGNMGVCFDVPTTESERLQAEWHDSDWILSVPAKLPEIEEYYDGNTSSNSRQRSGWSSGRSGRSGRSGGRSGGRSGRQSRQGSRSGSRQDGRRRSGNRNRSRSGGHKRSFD

Substance	target or system	test	test system	setting	scale	endpoint	result
B1 (ADRB1 W183A)	itself	BRET	HEK293	24 h, added: alprenolol 10 µM	–	BRET50	0.56 GFP/Rluc ratio
B2 (CRYAB)	itself	SEC	–	apo, reducing conditions	–	binding	binds
KNRKAKAKPVTRGAGAGGRQRGQNKERPPPVPNPDYEPIRKGQRDLYSGLNQRRI (CD3E cytoplasmic domain (Homo sapiens, UniProt P07766))	itself	AUC equilibrium sedimentation	–	–	–	Kd	8300 µM
B3	itself	AUC	–	–	–	Kd	19.9 µM
B4 (S100A3)	itself	AUC	–	–	–	Kd	30 ± 6 µM
B5 (BTK SH3-SH2 215-378 P327A)	itself	SEC	–	room temperature	–	dimer half-life	40.8 min
CUUCUUACU (ssRNA)	U2AF2	sequencing of bound RNA	RNA	motif only	–	Kd	7.93 µM
B6 (Ikbkg 1-355 C54S/K285N)	itself	SEC-MALS	–	–	–	Kd	27.5 µM
B7 (S100A8)	itself	AUC	–	without Ca2+ unclear, added: Ca2+	–	Kd	6 ± 2 µM
AGCUUGAGU (ssRNA)	U2AF2	sequencing of bound RNA	RNA	motif only	–	Kd	5.75 µM
B8 (NUP60 48-162)	itself	ITC	–	dimer dissociation	–	Kd	76.3 µM
B9	CYB5R4 knockout human cells	PP4 interaction, 3xFLAG-PP4C IP-MS	–	concentration not given	baseline: CYB5R4 KO over parental	log2 fold change	-3.29
insulin	–	LC-MS/MS	spiked human serum	10.83 ng/mL, 4 h, room temperature	baseline: untreated control	bias	-7.1%
DDX50 (Homo sapiens, UniProt Q9BQ39)	itself	MST	–	added: glucose 350 µM	baseline: no glucose, higher = greater reduction in dimerization	dimerization change	> 4 fold
B10 (unc-83 1-305)	itself	mass photometry	–	–	–	dimer particles	100 % peak
B11 (peroxiredoxin-4)	CYB5R4 knockout human cells	PP6 interaction, 3xFLAG-PP6C IP-MS	–	concentration not given	baseline: CYB5R4 KO over parental	log2 fold change	0.48
Neuropeptide Y	–	RP-HPLC	HALO Phenyl-hexyl column	25 µM, acetic acid/acetonitrile, 10 min gradient	–	retention time	5.15 min
B12 (S100A5)	itself	AUC	–	without Ca2+ unclear, added: Ca2+	–	Kd	75 ± 15 µM
RQIVDAQAVCTRCKESADFWCFECEQLLCAKCFEAHQWFLKHEARPLAE (PML 120-168 (Homo sapiens, UniProt P29590-1); sequence looked up)	itself	NMR titration	–	–	–	Kd	167 ± 32 µM
B13 (OGT monomeric W198E/I201D)	itself	TR-FRET	–	added: CoraFluor-labelled OGT 1 nM	–	Kd	> 1 µM

Some of these lines once more:
Substance	target or system	test	test system	setting	scale	endpoint	result
B4 (S100A3)	itself	AUC	–	–	–	Kd	30 ± 6 µM
